Published values gathered from unrelated publications.
± gives the spread as reported. ≈ marks a conversion by molar mass, not a printed value.

Compound	organism	test	test system	conditions	how to read	endpoint	value
CC1CCCCN1CCCNC(=O)c1cc(Sc2cccc(Cl)c2)nc2ccccc12 (stereo not drawn)	SARS-CoV-2	cytopathic effect, cell-based CPE	USA_WA1/2020	round 2, 5-point dilution		AC50	10 µM
CC(=O)OCc1c(C)cc(C)c(CN(C)C(C)c2ccon2)c1C (stereo not drawn)	Lassa mammarenavirus	viral replication	Huh-7	10 µM, 72 h		remaining activity	29%
CC[C@H]1C[N@@]2CC[C@H]1C[C@H]2[C@H](O)c1ccnc2ccc(OCCC(C)C)cc12	SARS-CoV-2	viral replication, GFP plate reader screen		cell-based		EC50	> 100 µM
CCCCN(CCCNC(=O)c1cc(Nc2ccc(OC)c(OC)c2)nc2ccccc12)Cc1ccccc1	SARS-CoV-2	cytopathic effect	USA_WA1/2020	retest, 8-point, duplicates		maximum response	10.2%
CC(C)CN(C[C@@H](O)[C@H](Cc1ccccc1)NC(=O)O[C@H]1CO[C@H]2OCC[C@H]21)S(=O)(=O)c1ccc2nc(NC3CCN(C4CCCC4)CC3)sc2c1	SARS-CoV-2	viral replication, high-content imaging screen		cell-based		EC50	> 100 µM
CCc1c(C(=O)C(N)=O)c2c(OCC(=O)O)cccc2n1Cc1ccccc1	Daboia russelii		mouse	intravenous, 120 µg/mouse, 24 h, drug mixture, added: venom 2.5 x LD50 preincubated		survival	40%
CCCCCCOc1ccc(C(=O)NCC2CCOC3(CCN(C(=O)C4(c5ccccc5)CCCC4)CC3)C2)cc1 (stereo not drawn)	Venezuelan equine encephalitis virus	viral replication		40 µM		inhibition	60%
COC(=O)c1cc2n(n1)CCN(Cc1cc3ccc(C)cc3nc1O)C2	Lassa mammarenavirus	viral replication	Huh-7	10 µM, 72 h		remaining activity	52%
COc1ccc2cc1Oc1ccc(cc1)C[C@H]1c3c(cc4c(c3Oc3cc5c(cc3OC)CCN(C)[C@@H]5C2)OCO4)CCN1C	African swine fever virus			concentration not given		intracellular viral copies	decreased
Cc1nc2n(n1)CC(=O)N[C@@H](C(C)C)CN(C(=O)CN(C)C1CCCC1)CC(=O)N[C@@H](CC(C)C)c1nc(cs1)C(=O)N[C@H]2Cc1ccccc1	Lassa mammarenavirus	viral replication	Huh-7	10 µM, 72 h		remaining activity	98%
Cn1c(=O)ccc2ccc(F)c(CCNC[C@H]3CN(c4cnc5c(n4)NC(=O)CO5)C(=O)O3)c21	Burkholderia mallei	microbial growth				MIC50	0.25 µg/mL (≈ 0.534 µM)
c1ccc2nc(N3CCCC(c4nccn4CC4CCC4)C3)ccc2c1 (stereo not drawn)	Lassa mammarenavirus	viral replication	Huh-7	10 µM, 72 h		remaining activity	29%
O=C(O[C@@H]1Cc2c(O)cc(O)cc2O[C@@H]1c1cc(O)c(O)c(O)c1)c1cc(O)c(O)c(O)c1	Severe acute respiratory syndrome coronavirus 2	cytopathic effect, inhibitor	Vero C1008	50 µM		inhibition	90%
CNCc1ccc(C)c(NC(=O)c2ccc(Nc3nc(-c4ccccc4)c4ccccc4n3)cc2)c1	SARS-CoV-2	viral replication, GFP plate reader screen		cell-based		EC50	2.95 µM
CCN(CC)CCCC(C)Nc1c2ccc(Cl)cc2nc2ccc(OC)cc12 (stereo not drawn)	Chikungunya virus		BHK-21 CHIKV replicon Gluc reporter		baseline: CC50 over EC50	selectivity index	1.64
Cc1cccc(Cc2cnc(NC(=O)C3CCC3)s2)c1	Histoplasma capsulatum	microbial growth				MIC	5 µM (≈ 1.43 µg/mL)
Cc1nc2n(n1)CC(=O)N[C@@H](C(C)C)CN(C(=O)c1cn[nH]c1)CC(=O)N[C@@H](CC(C)C)c1nc(cs1)C(=O)N[C@H]2Cc1ccccc1	Lassa mammarenavirus	viral replication	Huh-7	10 µM, 72 h		remaining activity	92%
CN(C(=O)CCC1CCCCC1)c1ncc(Cc2ccccc2)s1	Histoplasma capsulatum	microbial growth				MIC	> 20 µM
Cc1cccc(C2(C(=O)N3CCC4(CC3)CC(CNS(=O)(=O)N(C)C)CCO4)CCCC2)c1 (stereo not drawn)	Venezuelan equine encephalitis virus	viral replication				EC50	12.6 µM
O=C(Nc1ccc(N2CCN(C(=O)c3cnccn3)CC2)nc1)c1ccc(Br)cc1	Mycobacterium tuberculosis	bacterial growth	H37Ra-lux	168 h		IC90	40.3 µM
CC(C)=CCc1c(O)ccc(C(=O)/C=C/c2ccc(O)cc2)c1O	SARS-CoV-2	viral replication	Vero E6	25 µM		CPE inhibition	0%
CC(CN1c2ccccc2Sc2ccccc21)N(C)C (stereo not drawn)	SARS-CoV-2	viral replication, GFP plate reader screen		cell-based		EC50	21.9 µM
CC(C)Cn1c(CN(C)Cc2ncc[nH]2)nc2ccccc21	Lassa mammarenavirus	viral replication	Huh-7	10 µM, 72 h		remaining activity	42%
COc1ccc(C[C@@H]2c3cc(Oc4cc(C[C@@H]5c6cc(O)c(OC)cc6CCN5C)ccc4O)c(OC)cc3CCN2C)cc1	Severe acute respiratory syndrome coronavirus 2	cytopathic effect, inhibitor	Vero C1008	12.5 µM		inhibition	0%

Compound	organism	test	test system	conditions	how to read	endpoint	value
Cc1ccc(C(=O)Nc2ccc(CN3CCN(C)CC3)c(C(F)(F)F)c2)cc1C#Cc1cnc2cccnn12	SARS-CoV-2	viral replication, high-content imaging screen		cell-based		EC50	> 100 µM
O=C1c2c(O)c(=O)ccn2N([C@@H]2c3ccccc3SCc3c2ccc(F)c3F)[C@@H]2COCCN12	Influenza A virus	viral replication	A(H9N2)	mean		EC50	0.00037 ± 4e-05 µM
Oc1ccccc1-c1nc(-c2cccs2)c(-c2cccs2)[nH]1	SARS-CoV-2	cytopathic effect, cell-based CPE	USA_WA1/2020	round 1, 5-point dilution		AC50	12.6 µM
O=c1ccc2ccc(OCCCCN3CCN(c4cccc5sccc45)CC3)cc2[nH]1	SARS-CoV-2	viral replication, GFP plate reader screen		cell-based		EC50	> 100 µM
O=C(NC1CCCCC1)C(c1cccs1)N(Cc1ccc2c(c1)OCO2)C(=O)Cc1c[nH]c2ccccc12 (stereo not drawn)	Rickettsia canadensis	bacterial growth	Vero			IC90	11 µM
OC(COc1cccc(OCC(O)CN2CCCCC2)c1)CN1CCCCC1 (stereo not drawn)	SARS-CoV			concentration not given, compound absent at entry stage		plaque formation	no effect
Cc1ccc(Cn2cnc(-c3ccccc3)c2-c2nccn2C)c(F)c1F	Lassa mammarenavirus	viral replication	Huh-7	10 µM, 72 h		remaining activity	37%
CC1CCN(CCCNC(=O)c2cc(Sc3ccc(F)cc3)nc3ccccc23)CC1	SARS-CoV-2	cytopathic effect, cell-based CPE	USA_WA1/2020	round 2, 5-point dilution		AC50	11.2 µM
CC(C)(C)c1ccc(C(=O)Nc2ccc(N3CCN(C(=O)c4cnccn4)CC3)nc2)cc1	Mycobacterium tuberculosis	bacterial growth	H37Ra-lux	168 h		IC90	> 64 µM
COc1cccc2c1C(=O)c1c(O)c3c(c(O)c1C2=O)C[C@@](O)(C(=O)CO)C[C@@H]3O[C@H]1C[C@H](N)[C@H](O)[C@H](C)O1	SARS-CoV-2	viral replication, high-content imaging screen		cell-based		EC50	33.1 µM
O=C(/C=C/C1CCCCC1)Nc1ncc(Cc2ccccc2)s1	Histoplasma capsulatum	microbial growth				MIC	> 20 µM
COc1ccccc1-c1ccc(CN2CCCC(c3nc4ccc(C)cc4c(=O)[nH]3)C2)cc1 (stereo not drawn)	SARS-CoV-2	cytopathic effect	USA_WA1/2020	round 1, 5-point		maximum response	89.2%
C#CCCCOc1c2c(c(-c3ccc4c(c3)OCO4)c3cc(OC)c(OC)cc13)C(=O)OC2	VSV pseudotyped with Marburg virus GP	viral entry, refers to: GFP				IC50	0.402 ± 0.0459 µM
CN(C)CCOC(c1ccc(Cl)cc1)c1ccccn1 (stereo not drawn)	Ebola virus Zaire	pseudovirus entry	A549		baseline: CC50 over IC50	selectivity index	> 3
CC(C)C[C@@H]1NC(=O)CN(C(=O)c2cccn(C)c2=O)CCN(C)C(=O)[C@H](C)NC(=O)CN(C)C(=O)[C@@H](Cc2c[nH]c3ccccc23)NC(=O)c2csc1n2	Lassa mammarenavirus	viral replication	Huh-7	10 µM, 72 h		remaining activity	55%
Nc1ncnc2c1ncn2[C@@H]1O[C@@H]2COP(=O)(O)O[C@H]3[C@@H](O)[C@H](n4cnc5c(=O)[nH]cnc54)O[C@@H]3COP(=O)(O)O[C@H]2[C@H]1O	Chikungunya virus	upregulated Reactome pathway, RNA sequencing, refers to: Chromatin organization (R-HSA-4839726)	HFF-1		baseline: CHIKV-infected untreated	fold enrichment	2.41
Nc1ncnc2c([C@@H]3N[C@H](CO)[C@@H](O)[C@H]3O)c[nH]c12	Marburg virus		HeLa, Musoke	50 µM, 1 h		viral RNA copies	1.02e+06 copies/mL
O=C(O)COCCN1CCN(C(c2ccccc2)c2ccc(Cl)cc2)CC1 (stereo not drawn)	Ebola virus Zaire	HIV/EBOV pseudovirion entry	A549	48 h		IC50	> 100 µM
O=C(NCc1cccs1)C1CCCN(Cc2cccc(-c3ccc(F)cc3F)c2)C1 (stereo not drawn)	SARS-CoV-2	cytopathic effect	USA_WA1/2020	round 1, 5-point		efficacy	82.7%
COc1cc2c3cc1Oc1cc(ccc1O)CC1c4c(cc(OC)c(O)c4Oc4ccc(cc4)CC3N(C)CC2)CCN1C (stereo not drawn)	SARS-CoV-2	viral replication, high-content imaging screen		cell-based		EC50	5.37 µM
CCCCN(C)CCCNC(=O)c1ccc2nc(N3CCCCC3)sc2c1	SARS-CoV-2	cytopathic effect, cell-based CPE	USA_WA1/2020	round 2, 5-point dilution		AC50	10 µM
CNC(=O)[C@@H](NC(=O)[C@H](CC(C)C)[C@H](O)C(=O)NO)C(C)(C)C	Daboia russelii		mouse	intravenous, 60 µg/mouse, 24 h, drug mixture, added: KA venom 2.5 x LD50 preincubated		survival	100%
Cc1ccccc1CN1C(=O)c2ccccc2Sc2ccc(C(=O)NCCCN3CCOCC3)cc21	SARS-CoV-2	cytopathic effect	USA_WA1/2020	retest, 8-point, duplicates		maximum response	40.8%
CNC(=NCCSCc1csc(N=C(N)N)n1)NC#N	Marburg virus	HIV/MARV pseudovirion entry	A549	48 h		IC50	> 100 µM
